Results collected from several papers.
Parts stem from different laboratories: compare values within a part only.

Series 1 — method: Sort-seq; item: YFP reporter; medium: E. coli; setting: PhoQ-PhoP variant library; together with: 10 µM Mg2+; baseline: high Mg2+ state; direction: higher = stronger signaling; quantity: fold induction
Substance: PhoQ, residues 284 288 289 292 302 303 AEGLLW
target = PhoP, residues 12 14 15 18 19 ICWRQ (Escherichia coli, UniProt P23836); value = 2.93
target = PhoP, residues 12 14 15 18 19 VHTVL (Escherichia coli, UniProt P23836); value = 4.8
target = PhoP, residues 12 14 15 18 19 TQCLL (Escherichia coli, UniProt P23836); value = 2.65

Series 2 — method: protein-binding microarray; form: double-stranded DNA, one strand shown; medium: in vitro; tested at: 2540 nM top; setting: 60-bp whole probe; together with: salmon DNA 0.4 mg/ml; baseline: random background probes; direction: higher = stronger binding; quantity: fitted relative affinity; shared flanks, not repeated: GCCTAGCAC … GTCTTGATTCGCTTGACGCTGCTG
Target: Interferon regulatory factor 3, full length, phosphomimetic (IRF3, Homo sapiens, UniProt Q14653, residues 1-427, S386D/S396D/S398D/S402D/T404D/S405D)
Chain of UniProt Q14653 (whole entry, unmodified, looked up): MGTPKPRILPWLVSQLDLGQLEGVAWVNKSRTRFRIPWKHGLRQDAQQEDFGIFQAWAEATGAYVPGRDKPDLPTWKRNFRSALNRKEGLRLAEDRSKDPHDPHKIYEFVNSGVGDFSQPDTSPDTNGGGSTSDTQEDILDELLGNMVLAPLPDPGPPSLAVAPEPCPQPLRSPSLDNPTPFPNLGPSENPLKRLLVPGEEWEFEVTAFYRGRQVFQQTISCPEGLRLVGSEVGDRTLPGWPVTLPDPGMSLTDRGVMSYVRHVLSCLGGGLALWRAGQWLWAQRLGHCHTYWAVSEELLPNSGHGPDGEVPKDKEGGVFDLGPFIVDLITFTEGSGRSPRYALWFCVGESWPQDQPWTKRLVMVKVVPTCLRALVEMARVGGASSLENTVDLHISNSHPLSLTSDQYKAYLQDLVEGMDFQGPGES
Sequence = TTTAAAGAACCCACTATCTTGTGCTAG; value = 0.0501 z-score
Sequence = TTAGGTTTCGGGACTGAGTTAGTGCTA; value = 4.09 z-score
Sequence = TTAGGACTGCTTCTCCCTTAGTGCTAG; value = -0.104 z-score
Sequence = TTAGGTTTCGATTATCGGTTAGTGCTA; value = 5.77 z-score
Sequence = GATGAACTGAGTCTCGAGACGTGCTAG; value = -0.546 z-score
Sequence = GACGATATCGTGTATCGAGACGTGCTA; value = 0.197 z-score
Sequence = CGAGTTTTCTCTCCCATTCTGTGCTAG; value = 1.51 z-score
Sequence = GACGGTATCGGTCTCGGGATGTGCTAG; value = 4.49 z-score
Sequence = TTAGGTCTCCTTCTCCATTAGTGCTAG; value = 4.39 z-score
Sequence = TTAGCACTGAGTATCGATTAGTGCTAG; value = -0.0905 z-score
Sequence = GACGGTATCGGGACTGGTGACGTGCTA; value = 1.71 z-score
Sequence = TTAGTTATCGGGTTTCGGTTAGTGCTA; value = 3.15 z-score
Sequence = GACGGTCTCGGACTGAGGACGTGCTAG; value = 0.179 z-score
Sequence = GACGATTTCAGTCTCGAGCCGTGCTAG; value = 2.12 z-score
Sequence = TCAATGATTTTTTTCATACTGTGCTAG; value = 0.319 z-score
Sequence = GGGTGAATGTGTCTTAAATAGTGCTAG; value = -0.262 z-score

Series 3 — method: protein binding microarray; form: double-stranded DNA, one strand shown; medium: in vitro; tested at: not given; baseline: not given; direction: higher = stronger binding; quantity: E-score
Target: Histone acetyltransferase KAT6A, winged helix 1, GST fusion (KAT6A, Homo sapiens, UniProt Q92794, residues 1-85)
Setting: 8-mer, flanks averaged, mean of 2 arrays, mostly near background
Target sequence (chain): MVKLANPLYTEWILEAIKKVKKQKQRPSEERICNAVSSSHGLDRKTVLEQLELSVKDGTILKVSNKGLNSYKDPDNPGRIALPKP
Sequence = GTGACCAC; value = 0.00728
Sequence = CACAATCA; value = -0.308
Sequence = AATACAAT; value = -0.108
Sequence = AAGAGGGC; value = 0.0876
Sequence = GCAGTAAC; value = -0.0321
Sequence = TATCTTCA; value = -0.0471
Sequence = CGTATACC; value = 0.0721
Sequence = ACAGAATA; value = -0.179
Sequence = CACGTGTC; value = -0.202
Sequence = AGTAACAT; value = 0.0677
Sequence = AGTGTTAA; value = 0.0816
Sequence = AATAAATC; value = -0.00821
Sequence = AAGGTTCT; value = -0.128
Sequence = ACTGCCCA; value = -0.211
Sequence = GTCGGCAA; value = 0.292
Sequence = CGAATGCA; value = -0.1
Sequence = AGCTAATA; value = -0.159
Sequence = GAATAGAC; value = -0.182
Sequence = AACGGCTT; value = 0.296

Series 4 — method: RNA Bind-n-Seq; form: RNA; medium: in vitro; tested at: 1 µM; setting: whole 134-nt RNA, ends assumed; together with: 150 mM KCl; baseline: input library; direction: higher = stronger binding; quantity: log2 enrichment
Target: Ras GTPase-activating protein-binding protein 1, RRM domain (G3BP1, Homo sapiens, UniProt Q13283)
Chain of UniProt Q13283 (whole entry, looked up): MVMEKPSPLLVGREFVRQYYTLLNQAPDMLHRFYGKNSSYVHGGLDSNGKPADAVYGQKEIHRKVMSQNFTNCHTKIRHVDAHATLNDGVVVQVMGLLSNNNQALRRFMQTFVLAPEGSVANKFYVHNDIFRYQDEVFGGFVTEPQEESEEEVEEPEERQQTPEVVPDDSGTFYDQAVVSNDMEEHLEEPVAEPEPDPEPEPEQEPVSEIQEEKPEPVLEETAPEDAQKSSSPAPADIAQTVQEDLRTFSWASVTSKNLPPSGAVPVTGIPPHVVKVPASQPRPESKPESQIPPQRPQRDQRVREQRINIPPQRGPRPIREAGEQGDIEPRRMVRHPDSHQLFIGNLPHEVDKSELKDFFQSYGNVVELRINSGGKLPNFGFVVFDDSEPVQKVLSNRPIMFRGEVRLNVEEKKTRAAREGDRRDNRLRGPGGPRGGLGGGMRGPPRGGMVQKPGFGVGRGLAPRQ
Shared flanks, not repeated: GGGAGUUCUACAGUCCGACGAUC … UGGAAUUCUCGGGUGUCAAGG
Sequence = UUCUUGCCUAUGCUGUGCGCCACACCAUCCAGGUGUACCGGCUCUCCAAGUACAACACGGAAGAAUUCAUCACAGUCUACCCCACCGACC; value = 0.097
Sequence = UAGCUUUAGAGGAGGAUCUGAUGGAUAUGGCAGUGGACGUGGAUUUGGGGAUGGCUAUAAUGGGUAUGGAGGAGGACCUGGAGGUGGCAA; value = -0.801
Sequence = CUCAAGUCCUGUGCUACACAUCGUAUGUACCGAAUCGGGGUUGGGUUGGGUUGGAAAGUAUUAUGUUACGCCGUUCGGAUCUGCACUUCC; value = -0.19
Sequence = UGGCCCUGGUGGCAUGCGGGGAGGAAGAGGUGGCCUCAUGGAUCGUGGUGGUCCCGGUGGAUUGUUCAGAGGUGGCCGUGGUGGAGACAG; value = 0.878
Sequence = UGGCCCUGGUGGCAUGCGGGGAGGAAGAGGUGGCCUCAUGGAUCGUGGUGGUCCCGGUGGAAUGUUCAGAGGUGCCCGUGGUGGAGACAG; value = 1.37
Sequence = CAAAAACAACACGCACCCACACAGACACAGAGGGAAGGGGUUGGGAUGGGGACAGGGUGCACAGCAGGGCGGGGUAGGACCCCAGCCCCU; value = -0.249
Sequence = AGUCCUGUGCUACACAUCGUAUGUACCGAAUCAAACCCAAAUUUUUAAAUUUUUAAAAAAGUAUUAUGUUACGCCGUUCGGAUCUGCACU; value = -0.804
Sequence = CAAGUCCUGUGCUACACAUCGUAUGUACCGAAUCGGGGUGGGGAAAGGGGAGGGGAAAGUAUUAUGUUACGCCGUUCGGAUCUGCACUUC; value = 1.17
Sequence = CUCAAGUCCUGUGCUACACAUCGUAUGUACCGAAUCGGGUUGGGUUGGGGUUGGAAAGUAUUAUGUUACGCCGUUCGGAUCUGCACUUCC; value = -0.133
Sequence = GUCCUGUGCUACACAUCGUAUGUACCGAAUCGGGAAAGGGAAAAAAAGGGUUUUUGGGAAAGUAUUAUGUUACGCCGUUCGGAUCUGCAC; value = 0.181
Sequence = UCAAGUCCUGUGCUACACAUCGUAUGUACCGAAUCGGGUUUGGGUUUGGGAGGGAAAGUAUUAUGUUACGCCGUUCGGAUCUGCACUUCC; value = 0.602
Sequence = UGGCCCUGGUGGCAUGCGGGGAGGAACAGGUGGCCUCAUGGAUCGUGGUGGUCCCGGUGGAAUGUUCAGAGGUGGCCGUGGUGGAGACAG; value = 0.714
Sequence = CCUGUGCUACACAUCGUAUGUACCGAAUCAAAUUUUUAAACCCCCCCAAACCCCCCCAAAAAAGUAUUAUGUUACGCCGUUCGGAUCUGC; value = -0.69
Sequence = UCCUGUGCUACACAUCGUAUGUACCGAAUCGGUUUUUUGGUUUUUUGGGGUUUUUUGGGAAAGUAUUAUGUUACGCCGUUCGGAUCUGCA; value = -0.245

For quick reference, copied from above (series 4):
Sequence = CAAAAACAACACGCACCCACACAGACACAGAGGGAAGGGGUUGGGAUGGGGACAGGGUGCACAGCAGGGCGGGGUAGGACCCCAGCCCCU; value = -0.249
Sequence = CCUGUGCUACACAUCGUAUGUACCGAAUCAAAUUUUUAAACCCCCCCAAACCCCCCCAAAAAAGUAUUAUGUUACGCCGUUCGGAUCUGC; value = -0.69
Sequence = UGGCCCUGGUGGCAUGCGGGGAGGAAGAGGUGGCCUCAUGGAUCGUGGUGGUCCCGGUGGAUUGUUCAGAGGUGGCCGUGGUGGAGACAG; value = 0.878
Sequence = GUCCUGUGCUACACAUCGUAUGUACCGAAUCGGGAAAGGGAAAAAAAGGGUUUUUGGGAAAGUAUUAUGUUACGCCGUUCGGAUCUGCAC; value = 0.181
Sequence = UAGCUUUAGAGGAGGAUCUGAUGGAUAUGGCAGUGGACGUGGAUUUGGGGAUGGCUAUAAUGGGUAUGGAGGAGGACCUGGAGGUGGCAA; value = -0.801
Sequence = UUCUUGCCUAUGCUGUGCGCCACACCAUCCAGGUGUACCGGCUCUCCAAGUACAACACGGAAGAAUUCAUCACAGUCUACCCCACCGACC; value = 0.097
Sequence = AGUCCUGUGCUACACAUCGUAUGUACCGAAUCAAACCCAAAUUUUUAAAUUUUUAAAAAAGUAUUAUGUUACGCCGUUCGGAUCUGCACU; value = -0.804
